Experimental data collected from several papers.
Compare with care: the assays were run in different laboratories. Numbers after ± are the reported error.
ALPL: Alkaline phosphatase, tissue-nonspecific isozyme (ALPL, Homo sapiens, UniProt P05186)
Sequence of UniProt P05186 (whole entry, looked up): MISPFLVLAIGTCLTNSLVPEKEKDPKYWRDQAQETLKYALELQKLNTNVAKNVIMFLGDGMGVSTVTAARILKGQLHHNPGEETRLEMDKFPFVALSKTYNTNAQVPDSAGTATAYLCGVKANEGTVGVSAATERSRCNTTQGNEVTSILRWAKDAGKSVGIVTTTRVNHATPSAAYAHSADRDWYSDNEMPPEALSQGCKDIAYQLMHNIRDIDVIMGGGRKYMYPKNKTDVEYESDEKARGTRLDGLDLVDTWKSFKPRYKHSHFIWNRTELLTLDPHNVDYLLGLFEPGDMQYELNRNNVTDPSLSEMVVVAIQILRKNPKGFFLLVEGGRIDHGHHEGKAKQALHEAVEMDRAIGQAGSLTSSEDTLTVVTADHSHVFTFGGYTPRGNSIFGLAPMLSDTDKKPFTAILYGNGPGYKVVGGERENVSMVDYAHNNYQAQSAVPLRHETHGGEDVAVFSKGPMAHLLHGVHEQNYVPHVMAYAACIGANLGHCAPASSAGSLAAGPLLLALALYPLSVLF
Proteasome component C5/PSMB5 chymotrypsin-like site: Proteasome component C5/PSMB5, chymotrypsin-like site (Homo sapiens, UniProt P20618+P28074)
Sequence of UniProt P28074 (whole entry, looked up): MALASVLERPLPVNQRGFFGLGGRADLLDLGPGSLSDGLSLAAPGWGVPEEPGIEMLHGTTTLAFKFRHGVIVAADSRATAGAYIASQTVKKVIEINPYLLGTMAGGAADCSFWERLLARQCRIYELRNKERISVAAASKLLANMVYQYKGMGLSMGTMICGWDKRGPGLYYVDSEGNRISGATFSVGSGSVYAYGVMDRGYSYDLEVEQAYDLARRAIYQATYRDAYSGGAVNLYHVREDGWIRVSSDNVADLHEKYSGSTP
Sequence of UniProt P20618 (whole entry, looked up): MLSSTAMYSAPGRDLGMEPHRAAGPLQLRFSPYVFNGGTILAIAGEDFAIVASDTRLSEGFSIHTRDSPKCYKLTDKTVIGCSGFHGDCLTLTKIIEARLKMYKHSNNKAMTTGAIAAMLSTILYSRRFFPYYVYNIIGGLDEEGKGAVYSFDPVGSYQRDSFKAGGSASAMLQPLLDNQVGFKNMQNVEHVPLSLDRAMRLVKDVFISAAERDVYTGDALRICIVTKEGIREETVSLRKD
Genome polyprotein NS2B-NS3 protease: Genome polyprotein, NS2B-NS3 protease (ZIKV, UniProt A0A024B7W1)
Sequence of UniProt A0A024B7W1 (whole entry, looked up): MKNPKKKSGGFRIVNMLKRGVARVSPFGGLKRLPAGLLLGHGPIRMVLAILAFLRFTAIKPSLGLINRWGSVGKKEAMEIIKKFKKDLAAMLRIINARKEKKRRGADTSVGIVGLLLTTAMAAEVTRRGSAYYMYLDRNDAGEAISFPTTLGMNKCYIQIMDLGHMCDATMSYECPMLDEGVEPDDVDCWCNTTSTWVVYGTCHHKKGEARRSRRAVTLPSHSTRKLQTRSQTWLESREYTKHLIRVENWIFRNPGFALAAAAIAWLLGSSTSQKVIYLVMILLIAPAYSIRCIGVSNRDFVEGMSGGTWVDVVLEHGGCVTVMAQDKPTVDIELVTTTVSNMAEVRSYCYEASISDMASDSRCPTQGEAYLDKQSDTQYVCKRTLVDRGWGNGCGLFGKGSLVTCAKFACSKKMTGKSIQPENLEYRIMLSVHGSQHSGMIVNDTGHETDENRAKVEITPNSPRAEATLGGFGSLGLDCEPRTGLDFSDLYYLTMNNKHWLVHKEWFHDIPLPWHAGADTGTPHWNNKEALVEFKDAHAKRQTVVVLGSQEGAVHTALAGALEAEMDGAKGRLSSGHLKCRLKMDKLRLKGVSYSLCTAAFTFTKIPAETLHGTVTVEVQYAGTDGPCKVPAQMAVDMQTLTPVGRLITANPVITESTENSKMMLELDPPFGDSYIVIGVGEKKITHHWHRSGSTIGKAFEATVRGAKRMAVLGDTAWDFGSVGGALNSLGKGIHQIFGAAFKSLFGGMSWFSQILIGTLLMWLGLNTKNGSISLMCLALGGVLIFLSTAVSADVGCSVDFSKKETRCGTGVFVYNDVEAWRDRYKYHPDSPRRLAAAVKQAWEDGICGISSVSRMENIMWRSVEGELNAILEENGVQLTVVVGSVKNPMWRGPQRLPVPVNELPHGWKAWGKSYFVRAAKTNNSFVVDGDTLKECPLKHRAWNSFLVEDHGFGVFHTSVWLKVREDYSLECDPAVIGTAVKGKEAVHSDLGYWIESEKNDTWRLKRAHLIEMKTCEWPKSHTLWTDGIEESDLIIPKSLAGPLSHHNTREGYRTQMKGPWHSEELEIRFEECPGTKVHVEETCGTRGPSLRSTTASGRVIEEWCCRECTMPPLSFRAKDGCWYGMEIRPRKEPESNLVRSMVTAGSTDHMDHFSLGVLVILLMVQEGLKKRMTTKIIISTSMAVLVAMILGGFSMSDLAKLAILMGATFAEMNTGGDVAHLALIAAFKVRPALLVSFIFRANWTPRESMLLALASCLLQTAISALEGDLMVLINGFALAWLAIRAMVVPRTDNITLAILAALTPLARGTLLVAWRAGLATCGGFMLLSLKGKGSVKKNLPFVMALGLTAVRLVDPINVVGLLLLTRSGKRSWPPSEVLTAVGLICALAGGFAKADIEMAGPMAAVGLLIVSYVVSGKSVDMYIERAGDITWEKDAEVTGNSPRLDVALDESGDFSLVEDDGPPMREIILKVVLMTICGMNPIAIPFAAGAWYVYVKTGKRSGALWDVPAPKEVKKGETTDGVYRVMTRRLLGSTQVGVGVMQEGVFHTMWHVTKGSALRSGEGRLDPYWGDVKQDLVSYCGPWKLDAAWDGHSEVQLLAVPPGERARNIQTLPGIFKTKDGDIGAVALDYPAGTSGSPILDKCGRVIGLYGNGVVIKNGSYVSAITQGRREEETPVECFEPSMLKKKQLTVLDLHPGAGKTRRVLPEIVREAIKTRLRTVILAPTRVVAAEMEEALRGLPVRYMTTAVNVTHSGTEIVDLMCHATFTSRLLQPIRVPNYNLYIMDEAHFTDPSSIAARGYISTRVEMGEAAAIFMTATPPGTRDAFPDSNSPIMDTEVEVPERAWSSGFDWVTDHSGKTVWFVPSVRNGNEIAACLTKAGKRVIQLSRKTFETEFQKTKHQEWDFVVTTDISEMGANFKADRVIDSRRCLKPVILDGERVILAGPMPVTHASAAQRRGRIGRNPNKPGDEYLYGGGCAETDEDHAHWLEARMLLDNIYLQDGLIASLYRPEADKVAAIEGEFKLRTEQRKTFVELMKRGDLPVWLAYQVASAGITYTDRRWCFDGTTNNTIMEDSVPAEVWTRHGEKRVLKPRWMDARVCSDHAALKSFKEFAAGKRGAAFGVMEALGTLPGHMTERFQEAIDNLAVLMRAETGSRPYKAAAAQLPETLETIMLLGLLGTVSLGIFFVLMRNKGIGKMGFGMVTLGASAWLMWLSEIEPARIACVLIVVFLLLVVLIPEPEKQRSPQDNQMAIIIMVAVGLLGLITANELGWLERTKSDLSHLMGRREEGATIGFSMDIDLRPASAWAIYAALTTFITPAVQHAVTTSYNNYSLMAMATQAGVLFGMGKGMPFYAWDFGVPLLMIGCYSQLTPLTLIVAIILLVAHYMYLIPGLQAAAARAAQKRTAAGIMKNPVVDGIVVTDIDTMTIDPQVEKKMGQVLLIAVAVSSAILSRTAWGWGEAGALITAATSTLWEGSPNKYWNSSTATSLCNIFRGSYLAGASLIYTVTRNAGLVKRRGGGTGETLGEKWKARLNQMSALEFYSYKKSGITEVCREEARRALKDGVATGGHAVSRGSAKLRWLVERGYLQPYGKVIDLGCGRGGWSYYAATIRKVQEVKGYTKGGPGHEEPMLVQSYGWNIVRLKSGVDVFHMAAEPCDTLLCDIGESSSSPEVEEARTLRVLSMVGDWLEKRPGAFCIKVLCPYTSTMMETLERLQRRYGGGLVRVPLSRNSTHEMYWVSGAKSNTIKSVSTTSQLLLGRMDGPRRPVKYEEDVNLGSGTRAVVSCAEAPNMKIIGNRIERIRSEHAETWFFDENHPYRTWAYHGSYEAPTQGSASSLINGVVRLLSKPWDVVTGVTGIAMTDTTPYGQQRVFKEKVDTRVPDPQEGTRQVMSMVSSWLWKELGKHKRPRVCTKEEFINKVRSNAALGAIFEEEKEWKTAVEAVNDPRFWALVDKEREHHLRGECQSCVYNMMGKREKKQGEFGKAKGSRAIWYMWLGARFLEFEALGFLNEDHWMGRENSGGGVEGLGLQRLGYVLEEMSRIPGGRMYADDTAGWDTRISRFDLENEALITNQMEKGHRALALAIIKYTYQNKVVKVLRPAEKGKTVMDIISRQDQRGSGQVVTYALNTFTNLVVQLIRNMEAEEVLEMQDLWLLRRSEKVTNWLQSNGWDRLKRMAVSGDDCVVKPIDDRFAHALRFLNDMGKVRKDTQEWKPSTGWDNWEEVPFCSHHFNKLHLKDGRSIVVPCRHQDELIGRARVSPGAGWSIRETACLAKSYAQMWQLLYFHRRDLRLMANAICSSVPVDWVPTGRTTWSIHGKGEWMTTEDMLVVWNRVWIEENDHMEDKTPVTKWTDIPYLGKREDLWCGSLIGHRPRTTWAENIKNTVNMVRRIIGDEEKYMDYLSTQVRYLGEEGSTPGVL
Genome polyprotein protease: Genome polyprotein, protease (dengue virus type 2, UniProt P29990)
Sequence of UniProt Q8R2Y0 (whole entry, looked up): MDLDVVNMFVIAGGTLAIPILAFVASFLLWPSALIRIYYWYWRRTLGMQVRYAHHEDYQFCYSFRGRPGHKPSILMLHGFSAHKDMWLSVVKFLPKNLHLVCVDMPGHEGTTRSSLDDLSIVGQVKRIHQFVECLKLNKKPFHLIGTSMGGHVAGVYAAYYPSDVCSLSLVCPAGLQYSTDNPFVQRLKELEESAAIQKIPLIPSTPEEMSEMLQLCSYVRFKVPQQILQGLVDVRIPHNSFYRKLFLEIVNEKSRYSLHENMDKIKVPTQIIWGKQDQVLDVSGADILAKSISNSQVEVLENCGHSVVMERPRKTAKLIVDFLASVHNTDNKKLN
Sequence of UniProt Q06520 (whole entry, looked up): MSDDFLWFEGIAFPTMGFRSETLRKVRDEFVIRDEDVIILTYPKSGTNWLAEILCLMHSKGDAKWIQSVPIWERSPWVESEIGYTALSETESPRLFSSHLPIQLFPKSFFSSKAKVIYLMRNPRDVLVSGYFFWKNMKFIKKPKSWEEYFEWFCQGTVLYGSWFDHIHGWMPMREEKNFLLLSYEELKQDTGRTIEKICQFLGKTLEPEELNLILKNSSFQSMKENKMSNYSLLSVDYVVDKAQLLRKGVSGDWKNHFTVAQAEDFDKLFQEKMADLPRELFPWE

SMILES	target	assay	test system	conditions	IC50 [µM]
COc1cc2nc(N3CCN(C(=O)c4ccco4)CC3)nc(N)c2cc1OC	SLCO1B3 (Homo sapiens, UniProt Q9NPD5)	transport, inhibitor		10 (unit not given), pre-incubation, together with: cholecystokinin	36.7 ± 2.8
O=C(CN1CCSC1=NCc1ccccc1)c1ccc(Cl)c(Cl)c1	Methionyl-tRNA synthetase, putative (Trypanosoma brucei brucei, UniProt Q38C91)	enzyme activity, inhibitor, ATP luminescence			2.2
O=S(=O)(O)Oc1cc(Cl)c(-c2cc(Cl)ccc2Cl)cc1Cl	SULT2A1 (Homo sapiens, UniProt Q06520)	enzyme activity, inhibitor, radiometric		pH 7.4	29.5
Nc1ncnc2c1ncn2[C@@H]1O[C@H](COP(=O)(O)OP(=O)(O)C(Cl)(Cl)P(=O)(O)O)[C@@H](O)[C@H]1O	DDR2 (Homo sapiens, UniProt Q16832)	enzyme activity, inhibitor, HotSpot kinase		together with: ATP 1 µM	0.08
Oc1ccc2c3c1O[C@H]1c4[nH]c5c(c4C[C@@]4(O)[C@@H](C2)N(CC2CC2)CC[C@]314)C[C@@]1(O)[C@H]2Cc3ccc(O)c4c3[C@@]1(CCN2CC1CC1)[C@H]5O4	human MBNL1	CUG repeat RNA binding, inhibitor, HTRF		together with: biotin-(CUG)12 RNA	31.6
Oc1ccc(-c2cccc(Cl)c2)cc1Cl	SULT1E1 (Homo sapiens, UniProt P49888)	enzyme activity, inhibitor, radiometric		pH 7.4	0.0072
CC1(C)N=C(N)N=C(N)N1OCCCOc1cc(Cl)c(Cl)cc1Cl	SHMT (Plasmodium falciparum, UniProt Q8I566)	enzyme activity, radiometric		20 min, 37 °C, together with: serine 0.2 mM, THF 1 mM	125
O=c1c(O)c(-c2cc(O)c(O)c(O)c2)oc2cc(O)cc(O)c12	Cell division cycle 7-related protein kinase, with DBF4 (CDC7, Homo sapiens, UniProt O00311)	enzyme activity, inhibitor, ADP-Glo luminescence		together with: ATP 12.5 µM	12 ± 2.55
CC(C)C[C@H](NC(=O)[C@H](C)N)C(=O)N[C@@H](C)C(=O)N[C@@H](C)C(=O)N[C@@H](Cc1c[nH]c2ccccc12)C(=O)N[C@@H](C)C(=O)N[C@@H](C)C(=O)O	Transcriptional regulator ComR (Streptococcus mutans serotype c, UniProt Q8DWI6)		Streptococcus mutans		> 50
CCOc1ccc(C(=O)O)c(O)c1	DNA topoisomerase 1 (topA, Escherichia coli, UniProt P06612)	enzyme activity, inhibitor			> 250
O=C(O)c1cc(-c2ccccc2Cl)n[nH]1	ALPL	enzyme activity, inhibitor, colorimetric OD405		resynthesised dry powder, together with: 0.5 mM pNPP	> 100
COc1ccc([N+](=O)[O-])c(S(=O)(=O)c2ccc(Cl)cc2)n1	TXNRD1 (Homo sapiens, UniProt Q16881)	enzyme activity, inhibitor		with preincubation	< 20
C=C1C[C@H](C)C[C@@H]2CC=C[C@@H](C/C=C\C(=O)O[C@H]([C@@H](O)/C=C/[C@@H]3CC(C)=CCO3)C[C@@H]3O[C@H]3[C@@H](O)C1)O2	Tubulin beta chain, microtubules (Bos taurus, UniProt Q6B856)	binding	bovine microtubules	together with: [3H]peloruside A	~1
CC(C)C[C@H](NC(=O)OCc1ccccc1)C(=O)N[C@@H](Cc1ccccc1)C(=O)N[C@@H](CC(C)C)C(=O)C(=O)Nc1ccccc1	Proteasome component C5/PSMB5 chymotrypsin-like site	enzyme activity in cells, inhibitor			0.231
NCc1ccc(-c2ncc(OCC3CCNCC3)nc2-c2ccc(CN)c(F)c2)cc1	Genome polyprotein NS2B-NS3 protease	inhibitor	Zika virus		> 50
CN1CCC(Oc2ccc(Cl)cc2C(=O)Nc2ccc([N+](=O)[O-])cc2Cl)CC1	Genome polyprotein protease	enzyme activity, inhibitor, FRET			25.9
O=C(OC(C(F)(F)F)C(F)(F)F)N1CCN(Cc2cccc(Oc3ccccc3)c2)CC1	Abhd6 (Mus musculus, UniProt Q8R2Y0)	competitive ABPP	mouse brain membrane proteome		0.107

SMILES	target	assay	test system	conditions	IC50 [µM]
CC12CC3CC1(C)C1(C)CC3(CN)CC21C	Glutamate NMDA receptor; Grin1/Grin2a (Grin1/Grin2a, Rattus norvegicus, UniProt P35439+Q00959)	glutamate-evoked current, inhibitor, whole-cell patch clamp	tsA201 cells	holding potential -65 mV, together with: 1 mM glutamate	1.01 ± 0.13
CCN1C(=Cc2ccc3ccccc3[n+]2CC)C=Cc2ccccc21	SLC22A3 (Homo sapiens, UniProt O75751)	[3H]MPP+ uptake, inhibitor	HEK293 stably expressing SLC22A3	10 min, room temperature, together with: 10 nM [3H]MPP+	~0.2
CC(C)C[C@H](NC(=O)OCc1ccccc1)C(=O)N[C@@H](CC(C)C)C(=O)N[C@@H](CC(C)C)C(=O)C(=O)Nc1cccc2ncccc12	Proteasome component C5/PSMB5 chymotrypsin-like site	enzyme activity in cells, inhibitor			0.0997
O=C1OC2(c3cc(Cl)c(O)cc3Oc3cc(O)c(Cl)cc32)c2ccccc21	Dual specificity protein phosphatase 5 (Homo sapiens, UniProt Q16690)	phosphatase activity		60 min, 1 mM DTT, together with: pNPP	200 ± 3.1
COc1ccc(C)cc1S(=O)(=O)Nc1cccnc1	ALPL	enzyme activity, inhibitor, luminescence		together with: CDP-Star 50 µM	1.78
COP(=O)(OC)SCn1nnc2ccccc2c1=O	rat liver carboxylesterase	enzyme activity, inhibitor	rat, postnatal day 12, liver homogenate	together with: p-nitrophenyl valerate	0.19
COc1ccc(-c2nc3cc4nc5ccccc5nc4cc3[nH]2)cc1[N+](=O)[O-]	Genome polyprotein protease	enzyme activity, inhibitor, fluorescence		pH 8.5	85.9
[I-].[Na+]	OXA-48 (Klebsiella pneumoniae, UniProt Q6XEC0, del214-217/S212D)	enzyme activity, inhibitor		pH 7.2, with preincubation	10000
Cn1ncnc2c(=O)n(C)c(=O)nc1-2	Cathepsin B (CTSB, Homo sapiens, UniProt P07858)	enzyme activity, inhibitor, fluorescence			0.046
NCc1ccc(-c2ncc(OCC3CCNCC3)nc2-c2ccc(-n3ccnn3)cc2)cc1	Genome polyprotein NS2B-NS3 protease	inhibitor	Zika virus		> 10
CC(C)C[C@H](NC(=O)CN)C(=O)N[C@@H](C)C(=O)N[C@@H](C)C(=O)N[C@@H](C)C(=O)N[C@H](C(=O)N[C@H](C(=O)N[C@@H](C)C(=O)N[C@H](C(=O)O)C(C)C)C(C)C)C(C)C	HLA class I histocompatibility antigen, A alpha chain, allele A*02:02 (Homo sapiens, UniProt P04439)	peptide binding, radiolabelled peptide competition		together with: radiolabelled standard peptide	0.031
CN1C(=O)[C@]23SS[C@@]1(C)C(=O)N2[C@H]1Nc2ccccc2[C@@]1([C@@]12c4ccccc4N[C@@H]1N1C(=O)[C@@]4(C)SS[C@]1(C(=O)N4C)[C@H]2O)[C@@H]3O	PRMT1 (Homo sapiens, UniProt Q99873)	methyltransferase activity, inhibitor		together with: 1 µM [3H]SAM	> 10
O=[N+]([O-])c1cccc2[nH]c(CNc3nc(N4CCOCC4)nc4c3ncn4-c3ccsc3)nc12	Cyclin-dependent kinase 4, with cyclin D1 (CDK4, Homo sapiens, UniProt P11802)	enzyme activity, inhibitor			1.34
O=C(CCNNC(=O)c1ccncc1)NCc1ccccc1	Beta-glucuronidase (GUSB, Bos taurus, UniProt A3KMY8)	enzyme activity, inhibitor			74.8
Cc1cc(O)cc(C)c1-c1ccc(-c2c(C)cc(O)cc2C)[se]1	ESR2 (Homo sapiens, UniProt Q92731)	antagonist	HEK293T	together with: estradiol 10 nM	5.39
Oc1c(Cl)cc(-c2ccc(Cl)cc2Cl)cc1Cl	Sult1a1 (Rattus norvegicus, UniProt P17988)	enzyme activity, inhibitor			0.85

Repeated from above:
SMILES	target	assay	test system	conditions	IC50 [µM]
O=S(=O)(O)Oc1cc(Cl)c(-c2cc(Cl)ccc2Cl)cc1Cl	SULT2A1 (Homo sapiens, UniProt Q06520)	enzyme activity, inhibitor, radiometric		pH 7.4	29.5
Oc1ccc(-c2cccc(Cl)c2)cc1Cl	SULT1E1 (Homo sapiens, UniProt P49888)	enzyme activity, inhibitor, radiometric		pH 7.4	0.0072
